Measured values from different studies.
Lines come from different studies, so protocols differ. Numbers after ± are the reported error.

The EC50 of `COC(=O)[C@@H]1C(C=Nc2cncnc2N)=Cc2cc3c(cc2[C@H]1c1cc(OC)c(OC)c(OC)c1)OCO3` is reported as 91 ± 2 µM (Leishmania infantum; promastigote, iRFP).
With `Cc1n[nH]c(C)c1CCOC(=O)c1cccc2c1oc(=O)n2C` the AUC(0-t) was 7610 ng·h/mL (BALB/c mouse, plasma; intravenous, 2 mg/kg).
`NC(=O)c1cn(-c2ccc(F)cc2)c2ccc(NCc3cccnc3)cc2c1=O` gave a Kp brain/plasma of 0.04 (rat; iv, 0.2 mg/kg, 15 min, cassette dosing).
With `COc1cc([C@@H]2c3cc4c(cc3C=C(C=O)[C@H]2C(=O)OCCCCCCBr)OCO4)cc(OC)c1OC` the EC50 was 25.7 ± 3.6 µM (Leishmania infantum; promastigote, iRFP).
`CC(C)n1nnc(-c2cc(O)cc(Nc3ncnn4ccc(CN5CCC(N)CC5)c34)c2)n1` — result for “total brain concentration”: 0.04 ± 0.03 µM (mouse, brain; subcutaneous, 10 mg/kg, 90 min).
The AUC of `CCCSc1nc(N[C@@H]2C[C@H]2c2ccc(F)c(F)c2)c2nnn([C@@H]3C[C@H](O)[C@@H](O)[C@H]3O)c2n1` is reported as 77.6 µM·h (rat, male, plasma; oral, 60 mg/kg/day ticagrelor, week 26).
`Cc1cc(NC(=O)c2cccc(NC(=O)C3=CC(C)(C)CCC3=O)c2)ccc1Nc1nccc(-c2cccnc2)n1` — result for plasma stability: “stable” (rat plasma; up to 120 min).
`Cc1c(-c2ccccc2)nn2c(=O)cc(-c3cccc(-c4nnn[nH]4)c3)[nH]c12` gave a CLint of 7.06 µL/min/mg (mouse liver microsomes; 1 µM).
With `Nc1ncc(-c2ccc3ncnc(N4CCc5cc(F)c(Cl)cc54)c3c2)cn1` the Cmax was 1490 ng/mL (CD1 mouse, plasma; intravenous, 5 mg/kg).
For `COc1ccc(CC(=O)OCc2ccc(-n3cccn3)cc2)cc1F`, the AUC(0-t) was 10400 ng·h/mL (BALB/c mouse, plasma; intravenous, 2 mg/kg).
The concentration of `Cc1ncc(CCc2ccc3c(c2)c(=O)c(C(N)=O)cn3-c2ccc(F)cc2)cn1` is reported as 5.6 nM (rat, brain; iv, 0.2 mg/kg, 15 min, cassette dosing).

A few entries again:
`Cc1c(-c2ccccc2)nn2c(=O)cc(-c3cccc(-c4nnn[nH]4)c3)[nH]c12` gave a CLint of 7.06 µL/min/mg (mouse liver microsomes; 1 µM).
